Published values from different studies.
A part holds a random share of what one study measured. Changes are numbered by the printed parent chain.

Set 1 — technique: protein binding microarray; molecule type: double-stranded DNA, one strand shown; medium: in vitro; concentration: not given; reference: not given; reading: higher = stronger binding; quantity: E-score
Target: Histone acetyltransferase KAT6A, both winged helices, GST fusion (KAT6A, Homo sapiens, UniProt Q92794, residues 1-181)
Setting: 8-mer, flanks averaged, mean of 2 arrays, mostly near background
Construct (chain): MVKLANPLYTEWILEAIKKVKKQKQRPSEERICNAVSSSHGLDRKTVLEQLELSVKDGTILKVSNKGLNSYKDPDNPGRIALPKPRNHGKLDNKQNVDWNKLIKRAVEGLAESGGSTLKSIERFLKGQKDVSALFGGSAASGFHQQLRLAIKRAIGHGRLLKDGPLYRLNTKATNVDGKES
AGAAGAAA: -0.118
GAGATGCC: 0.0139
GGCTCAAC: -0.0323
CTCGTGGA: -0.134
ACAAGGAT: -0.0921
CAGCTGCA: -0.0433
AAAGTGTG: -0.128
CTTGTGGC: -0.16
AGGTCGGC: 0.0842
CCACGTAA: -0.0624
AAAGACAA: -0.0501
CCCGGGGC: 0.207
CAATCAAG: 0.00227
GCATGATA: -0.0547
GCGAGTGA: 0.174
TGAGGCAA: -0.137
TCGAGAAA: -0.0793
ACGAGTCT: -0.122
AGTTGTCG: -0.0224
GCGACGGA: 0.282
CAGCGACG: 0.175
CGGTGTTC: 0.234
ATGAAGCG: 0.11
GCTGCCGA: 0.155
AGACTTTG: -0.0521

Set 2 — technique: RNA Bind-n-Seq; molecule type: RNA; medium: in vitro; concentration: 20 nM; setting: 6-mer, flanks averaged, single round; added: 150 mM KCl; reference: input library; reading: higher = stronger binding; quantity: 6-mer enrichment (R)
Target: TAR DNA-binding protein 43, full length, His tag (TARDBP, Homo sapiens, UniProt Q13148, residues 1-414)
CUGCCC: 0.644
AGUCUC: 0.578
GGAUUG: 1.42
CCCGAC: 0.66
AUUGUG: 0.872
CACCGC: 0.718
AGAGUU: 0.722
UUGAUU: 0.61
UGAGAG: 1.61
GCCCCG: 0.781
UAGUUG: 0.774
AACUUA: 0.589
UGCAUA: 0.658
GCGAAA: 0.994
ACUAGA: 0.663

Set 3 — technique: RNA Bind-n-Seq; molecule type: RNA; medium: in vitro; concentration: 200 nM; setting: whole 134-nt RNA, ends assumed; added: 150 mM LiCl; reference: input library; reading: higher = stronger binding; quantity: log2 enrichment; library: 7-deaza-guanosine replaces G
Target: Ras GTPase-activating protein-binding protein 1, full length (G3BP1, Homo sapiens, UniProt Q13283)
Chain of UniProt Q13283 (whole entry, looked up): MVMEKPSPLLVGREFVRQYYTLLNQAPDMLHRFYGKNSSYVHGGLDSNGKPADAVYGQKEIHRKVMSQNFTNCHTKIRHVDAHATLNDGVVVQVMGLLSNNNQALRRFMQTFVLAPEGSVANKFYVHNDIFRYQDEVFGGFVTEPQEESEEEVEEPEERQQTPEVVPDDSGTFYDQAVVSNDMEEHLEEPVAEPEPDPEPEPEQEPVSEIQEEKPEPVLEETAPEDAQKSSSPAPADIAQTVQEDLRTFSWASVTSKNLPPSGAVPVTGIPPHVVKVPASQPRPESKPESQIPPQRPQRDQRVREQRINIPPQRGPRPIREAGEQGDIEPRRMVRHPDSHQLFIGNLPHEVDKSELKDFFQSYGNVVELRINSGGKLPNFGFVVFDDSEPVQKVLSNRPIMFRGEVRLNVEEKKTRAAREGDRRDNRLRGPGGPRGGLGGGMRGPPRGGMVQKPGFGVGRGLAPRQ
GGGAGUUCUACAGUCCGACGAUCACCAUGCAGGUGGGCAUCUUUGGGAAUUGGGGCAAGGGGGGGAUAGGGAGGGGGGUAACACUUUGGGAACAGGUGGUCCCAGGUCGUUUCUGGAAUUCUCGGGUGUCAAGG: 0.37
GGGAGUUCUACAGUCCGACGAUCACCAUGCAGGUGGGCAUCUUUGGGAAGUGGGCCAAGGGGGGGAUAGGGAGGGGGGUAACACUUUGGGAACAGGUGGUCCCAGGUCGUUUCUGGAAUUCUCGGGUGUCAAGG: 0.338
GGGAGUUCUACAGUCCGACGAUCACUAUGCAGGUGGGCAUCUUUGGGAAGUGGGGCAAGGGGGGGAUAGGGAGGGGGGUAACACUUUGGGAACAGGUGGUCCCAGGUCGUUUCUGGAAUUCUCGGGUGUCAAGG: 0.162
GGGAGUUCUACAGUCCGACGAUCUCCUCCCUGGCUUCAGCCAGUCCCUGACGCUGAGCACUGGCUUCCGAGUCAUCAAGAAGAAGCUGUACAGCUCGGAACAGCUGCUCAUUGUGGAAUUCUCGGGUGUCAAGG: -0.617
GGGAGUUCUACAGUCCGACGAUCCUGUGCUACACAUCGUAUGUACCGAAUCGGGUUUUUUUGGGUUUUUUUGGUUUUUUUGGGGAAAGUAUUAUGUUACGCCGUUCGGAUCUGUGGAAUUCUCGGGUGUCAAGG: 1.08
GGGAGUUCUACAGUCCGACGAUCUCAAGUCCUGUGCUACACAUCGUAUGUACCGAAUCGGUUUUUGGUUUUUGGAGGAAAGUAUUAUGUUACGCCGUUCGGAUCUGCACUUCCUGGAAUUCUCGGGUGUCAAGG: 0.261
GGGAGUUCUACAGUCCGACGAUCAGUCCUGUGCUACACAUCGUAUGUACCGAAUCGGUUUUUUUGGAAAGGAAAAAAAGGAAAGUAUUAUGUUACGCCGUUCGGAUCUGCACUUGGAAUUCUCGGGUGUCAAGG: -2.08
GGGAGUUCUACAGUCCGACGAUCCACAGACUACACGCACCCACACAGACACAGAGGGAAGGGGUUGGGAUGGGGACAGGGUGCACAGCAGGGCGGGGUAGGACCCCAGCCCCUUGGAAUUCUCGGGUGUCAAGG: 0.677
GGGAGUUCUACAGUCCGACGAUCUGGGAGGUGGAUUUUGUUUAUUUUUUUAGCUCUUUUCCAGGGGUGGGAAUUUUUUUUUAAUAUGUGUCAUGAAUAAAGUUGUUUUUGAAAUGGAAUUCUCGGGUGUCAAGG: 0.367
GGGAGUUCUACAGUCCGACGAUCUGGGUUCUUAUUUCUAACUUGCAUAUGUUUUGUUUUUCAGAAGGAGUUGAGCCUUCCAAGAAGAGGCAGCUUGUAAGUAGAUGAUUAUUAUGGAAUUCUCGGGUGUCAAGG: -1.59
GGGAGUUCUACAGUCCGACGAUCGCAGGAAGUAAAAACAAAUGGAAAUGCUUCGGAUAGUGGCAGGGGUGGGGGUUGCUAAGGAAAGGAUGGGAUGGGAGUGGGUAAAGAGUUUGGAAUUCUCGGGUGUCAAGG: 0.126

Set 4 — target: CCND2, cyclin fold, Cln2 fusion (human); technique: yeast growth competition, sequencing; medium: yeast; setting: strong parent motif; reference: not given; reading: higher = stronger binding; quantity: normalised enrichment score
Parent: PKN2 docking peptide (human); VSAVRKLDFSDTM; partner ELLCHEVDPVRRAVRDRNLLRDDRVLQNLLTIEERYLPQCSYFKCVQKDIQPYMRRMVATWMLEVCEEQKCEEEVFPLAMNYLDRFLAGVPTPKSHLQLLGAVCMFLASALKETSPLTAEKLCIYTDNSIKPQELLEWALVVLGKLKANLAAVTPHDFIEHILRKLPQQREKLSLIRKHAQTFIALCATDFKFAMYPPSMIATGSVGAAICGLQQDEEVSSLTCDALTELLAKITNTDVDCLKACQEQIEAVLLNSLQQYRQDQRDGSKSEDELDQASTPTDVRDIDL
VSAVRKLDFNDTM [S10N]: 3.36
VSAVRKWDFSDTM [L7W]: 0.161
VQAVRKLDFSDTM [S2Q]: 1.81
VLAVRKLDFSDTM [S2L]: 1.66
VSMVRKLDFSDTM [A3M]: 0.278
VSAMRKLDFSDTM [V4M]: 2.57
VSRVRKLDFSDTM [A3R]: 0.643
VSAVRLLDFSDTM [K6L]: 1.71
VSAVRKLDFQDTM [S10Q]: 2.92
VSAVRKSDFSDTM [L7S]: 0.527
VSAVPKLDFSDTM [R5P]: 0.282
VSAVRELDFSDTM [K6E]: 1.35
VSAVRKLDFKDTM [S10K]: 2.46
VSAVRKLDFRDTM [S10R]: 2.73
VSAVRKLDFSDEM [T12E]: 4.06
VYAVRKLDFSDTM [S2Y]: 1.55
VSAVRKMDFSDTM [L7M]: 1.21
VSAVRKLDGSDTM [F9G]: 0.348
VSAVRWLDFSDTM [K6W]: 1.42
VSAVRKLDFSDKM [T12K]: 3.69
VSAVRMLDFSDTM [K6M]: 1.8
VSAVRKLDFSMTM [D11M]: 2.77
VPAVRKLDFSDTM [S2P]: 1.45
VSAVRKQDFSDTM [L7Q]: -0.0318
VSAVRKPDFSDTM [L7P]: 0.601

Set 5 — technique: universal PBM; molecule type: double-stranded DNA, one strand shown; medium: in vitro; concentration: not given; reading: higher = stronger binding; quantity: E-score
Target: Sal-like protein 4, full length isoform B (SALL4, Homo sapiens, UniProt Q9UJQ4-2, residues 1-616)
Setting: 8-mer, flanks averaged, mean of replicates
Residues (chain): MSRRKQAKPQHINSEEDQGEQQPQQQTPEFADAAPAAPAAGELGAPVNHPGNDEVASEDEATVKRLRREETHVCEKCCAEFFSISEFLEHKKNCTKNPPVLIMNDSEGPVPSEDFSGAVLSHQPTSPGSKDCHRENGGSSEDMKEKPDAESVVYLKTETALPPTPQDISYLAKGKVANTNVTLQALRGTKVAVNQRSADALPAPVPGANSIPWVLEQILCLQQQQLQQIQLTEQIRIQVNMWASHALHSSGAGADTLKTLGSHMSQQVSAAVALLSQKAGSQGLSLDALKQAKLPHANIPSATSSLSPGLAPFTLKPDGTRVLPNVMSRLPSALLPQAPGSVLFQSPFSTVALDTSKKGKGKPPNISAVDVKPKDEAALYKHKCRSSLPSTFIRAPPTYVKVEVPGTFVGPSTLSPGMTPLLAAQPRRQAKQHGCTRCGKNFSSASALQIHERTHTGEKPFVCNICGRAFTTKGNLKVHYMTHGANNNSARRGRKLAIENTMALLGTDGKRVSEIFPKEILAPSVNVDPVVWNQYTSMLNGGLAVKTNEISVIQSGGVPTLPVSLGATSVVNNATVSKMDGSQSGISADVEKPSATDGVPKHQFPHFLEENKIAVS
ACGCAGCG: -0.324
GTGGAGCA: -0.146
AGCTTCGC: -0.231
CCTAAGTC: -0.256
GAGAGAAA: -0.00456
CCGTAGGC: -0.219
ACTCAGCA: -0.106
AATCGTGC: 0.0402
AATAAAAG: 0.27
ATGGATCG: -0.0129
ATTATTTC: 0.363
CTTAGTGC: -0.103
GGATTGTA: 0.133
CTGCCAAA: -0.038
CGAATGAA: 0.122
CCAGCCAG: -0.302
CCAGGTCA: -0.065
CGTGCGGC: -0.205
GCGCCATA: 0.0339
GTGATAAC: 0.229
ACTGACGG: -0.244
CCTAGAGG: -0.212

Set 6 — technique: protein-binding microarray; molecule type: double-stranded DNA, one strand shown; medium: in vitro; concentration: 2540 nM top; setting: 60-bp whole probe; added: salmon DNA 0.4 mg/ml; reference: random background probes; reading: higher = stronger binding; quantity: fitted relative affinity; constant ends, left off below: GCCTAGCAC … GTCTTGATTCGCTTGACGCTGCTG
Target: Interferon regulatory factor 3, full length, phosphomimetic (IRF3, Homo sapiens, UniProt Q14653, residues 1-427, S386D/S396D/S398D/S402D/T404D/S405D)
Chain of UniProt Q14653 (whole entry, unmodified, looked up): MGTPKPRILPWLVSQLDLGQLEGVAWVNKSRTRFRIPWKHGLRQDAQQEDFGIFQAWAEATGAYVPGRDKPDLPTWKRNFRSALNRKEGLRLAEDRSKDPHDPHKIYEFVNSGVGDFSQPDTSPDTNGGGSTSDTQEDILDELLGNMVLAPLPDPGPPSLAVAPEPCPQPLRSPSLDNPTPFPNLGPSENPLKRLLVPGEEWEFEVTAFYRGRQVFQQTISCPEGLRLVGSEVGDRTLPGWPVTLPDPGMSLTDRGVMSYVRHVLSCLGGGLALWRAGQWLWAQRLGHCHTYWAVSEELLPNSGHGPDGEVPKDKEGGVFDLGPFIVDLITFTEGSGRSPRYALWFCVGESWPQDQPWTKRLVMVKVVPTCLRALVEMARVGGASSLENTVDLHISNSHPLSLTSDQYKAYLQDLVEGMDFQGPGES
GACGGTATTGACTTTCGGGACGTGCTA: 0.537 z-score
TCAATTTTGGTTTTCCTACTGTGCTAG: 3.28 z-score
TCATGTTTGAGTCTTCTACTGTGCTAG: -0.274 z-score
TCAACTTCGGCCTCTAGGACTGTGCTA: -0.235 z-score
GACGGTATCGACTTGCGGGACGTGCTA: 0.731 z-score
TTAGGTTTCGGTATCGGTTAGTGCTAG: 8.38 z-score
ATGAGTCTCAATATTAGAGTGTGCTAG: -0.0724 z-score
TTAGGTTCCCTTTTCCCTTAGTGCTAG: 7.51 z-score
ATAGATATCAGTCTCGATTAGTGCTAG: 1.42 z-score
GACGAACTGAGTAACGAGACGTGCTAG: -0.126 z-score
TAAGGAGGCAGGGATGCTCCGTGCTAG: -1.21 z-score
TTTCTCTCATTATGTGGGTTGTGCTAG: 2.76 z-score
TCAACTTTCAGTTCTCCACTGTGCTAG: 4.72 z-score
GACGGTTTCGGTTTCGGGAAGTGCTAG: 10.9 z-score
GACGGTATCGGGACTGGGGCCGTGCTA: 1.44 z-score
GACGATTTCAGACTGGAGAAGTGCTAG: 1.05 z-score
TCAGGTTTCAGATGCGTACTGTGCTAG: 1.97 z-score
GACGGTTTCCTTCTCCTGAAGTGCTAG: 10 z-score
TGGGCACACTTTGGGTCCTGGTGCTAG: -0.766 z-score
GACGAACTGAATCTCGAGACGTGCTAG: 0.177 z-score
CCCAGTCTCATATTTATTAGGTGCTAG: 1.76 z-score
GACGATATCGGGTATCGAAACGTGCTA: 0.808 z-score

A few entries again (set 5):
AATCGTGC: 0.0402
ATTATTTC: 0.363
CCTAGAGG: -0.212
CGAATGAA: 0.122
CCAGCCAG: -0.302
CTGCCAAA: -0.038
CCAGGTCA: -0.065
GTGATAAC: 0.229
GGATTGTA: 0.133
GAGAGAAA: -0.00456
ACTGACGG: -0.244
GCGCCATA: 0.0339
ATGGATCG: -0.0129
CCTAAGTC: -0.256
ACGCAGCG: -0.324
CTTAGTGC: -0.103
AATAAAAG: 0.27
GTGGAGCA: -0.146
CCGTAGGC: -0.219
CGTGCGGC: -0.205
